Experimental data from different studies.
A part holds a random share of what one study measured.

Set 1 — technique: protein binding microarray; form: double-stranded DNA, one strand shown; matrix: in vitro; concentration: not given; relative to: not given; reading: higher = stronger binding
Target: Histone acetyltransferase KAT6A, winged helix 1, GST fusion (KAT6A, Homo sapiens, UniProt Q92794, residues 1-85)
Setting: 8-mer, flanks averaged, mean of 2 arrays, mostly near background
Construct (chain): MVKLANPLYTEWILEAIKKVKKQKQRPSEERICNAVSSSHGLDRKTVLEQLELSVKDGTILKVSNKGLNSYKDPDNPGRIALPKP
With `ACGTTAAT` the E-score was -0.0179.
`GAGCCGAA` gave an E-score of 0.0974.
For `AACCATGA`, the E-score was 0.0122.
For `AGGGGCTC`, the E-score was -0.141.
The E-score of `GCGGAAAA` is reported as 0.242.
With `GCTGAAGC` the E-score was 0.0346.
The E-score of `AAGTCGAA` is reported as -0.233.
`ACGCCAGC` has an E-score of 0.0489.

Set 2 — technique: protein-binding microarray; form: double-stranded DNA, one strand shown; matrix: in vitro; concentration: not given; reading: higher = stronger binding
Target: Protein max, full length (MAX, Homo sapiens, UniProt P61244-2, residues 1-151)
Setting: k-mer, scored over probes, only values ≥0.25
The E-score of `ACACGGGG` is reported as 0.411.
With `CGTGACTC` the E-score was 0.337.
The E-score of `GCGCACGA` is reported as 0.366.
With `ACGTGAAA` the E-score was 0.359.
`CGAACACG` gave an E-score of 0.363.
With `CAGATGGC` the E-score was 0.299.
`ACTCCACG` has an E-score of 0.334.
For `ACATGAGG`, the E-score was 0.417.

Set 3 — technique: RNA Bind-n-Seq; form: RNA; matrix: in vitro; concentration: 200 nM; setting: whole 134-nt RNA, ends assumed; together with: 150 mM KCl; relative to: input library; reading: higher = stronger binding
Target: Ras GTPase-activating protein-binding protein 1, full length (G3BP1, Homo sapiens, UniProt Q13283)
UniProt Q13283, sequence (whole entry, looked up): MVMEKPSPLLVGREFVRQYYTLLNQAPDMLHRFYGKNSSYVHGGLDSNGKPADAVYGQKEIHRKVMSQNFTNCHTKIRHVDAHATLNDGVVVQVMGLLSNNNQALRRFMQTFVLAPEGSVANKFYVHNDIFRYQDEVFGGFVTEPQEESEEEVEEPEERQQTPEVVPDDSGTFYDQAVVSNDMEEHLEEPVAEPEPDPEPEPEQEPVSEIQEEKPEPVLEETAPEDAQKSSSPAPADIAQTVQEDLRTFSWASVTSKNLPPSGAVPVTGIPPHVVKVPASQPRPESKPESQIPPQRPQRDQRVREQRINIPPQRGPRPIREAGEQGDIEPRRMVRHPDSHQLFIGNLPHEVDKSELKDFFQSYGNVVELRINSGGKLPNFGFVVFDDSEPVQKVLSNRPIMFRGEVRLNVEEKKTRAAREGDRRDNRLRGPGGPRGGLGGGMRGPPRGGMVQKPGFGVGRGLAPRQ
The log2 enrichment of `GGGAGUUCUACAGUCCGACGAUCUUCUCUCUCUCCCUUUGCAGCCGCUGUACAACCAGCCCUCCGACACCCGGCAGUAUCAUGAGAACAUCAAAAUGUGAGUGCUCGCGGGCAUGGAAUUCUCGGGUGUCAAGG` is reported as 0.472.
For `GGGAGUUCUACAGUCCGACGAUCAGUCCUGUGCUACACAUCGUAUGUACCGAAUCGGGGAAAAAGGGAAAAAGGAAAAAGGAAAGUAUUAUGUUACGCCGUUCGGAUCUGCACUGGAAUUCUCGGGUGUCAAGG`, the log2 enrichment was -0.704.
With `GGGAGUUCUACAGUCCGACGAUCCUCAAGUCCUGUGCUACACAUCGUAUGUACCGAAUCGGUUUUUGGUGGAAAGGAAAGUAUUAUGUUACGCCGUUCGGAUCUGCACUUCCAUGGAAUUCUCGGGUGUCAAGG` the log2 enrichment was -0.374.
For `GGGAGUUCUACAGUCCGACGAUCUAACUUUAGAGGAGGAUCUGAUGGAUAUGGCAGUGGACGUGGAUUUGGGGAUGGCUAUAAUGGGUAUGGAGGAGGCCCUGGAGGUGGCAAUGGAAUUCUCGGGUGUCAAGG`, the log2 enrichment was 0.35.
`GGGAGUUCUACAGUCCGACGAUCGUAAGUGUGGCAAUGUGAACUGAAGCUGAUGGGCUGAGAACAUGGACUGAGCUUGUGGUGUGCUUUGCAGGAGGACUUGAAGCAGAGUUCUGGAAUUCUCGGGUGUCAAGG` gave a log2 enrichment of 1.05.

Single results of other studies
The fold induction of `PhoQ, residues 284 288 289 292 302 303 ALASRC` is reported as 13 (PhoP, residues 12 14 15 18 19 NHFIF (Escherichia coli, UniProt P23836); Sort-seq, item: YFP reporter; E. coli; PhoQ-PhoP variant library, together with: 10 µM Mg2+; relative to: high Mg2+ state, higher = stronger signaling).

For quick reference, copied from above (set 1):
The E-score of `AAGTCGAA` is reported as -0.233.
With `GCTGAAGC` the E-score was 0.0346.
